{"data": "Experimental data pooled from the literature", "FYN": "Tyrosine-protein kinase Fyn (FYN, Homo sapiens, UniProt P06241)", "note": "Compare with care: the assays were run in different laboratories. “And” joins repeats or separate records; there may be more than shown.", "chain of UniProt P06241 (whole entry, looked up)": "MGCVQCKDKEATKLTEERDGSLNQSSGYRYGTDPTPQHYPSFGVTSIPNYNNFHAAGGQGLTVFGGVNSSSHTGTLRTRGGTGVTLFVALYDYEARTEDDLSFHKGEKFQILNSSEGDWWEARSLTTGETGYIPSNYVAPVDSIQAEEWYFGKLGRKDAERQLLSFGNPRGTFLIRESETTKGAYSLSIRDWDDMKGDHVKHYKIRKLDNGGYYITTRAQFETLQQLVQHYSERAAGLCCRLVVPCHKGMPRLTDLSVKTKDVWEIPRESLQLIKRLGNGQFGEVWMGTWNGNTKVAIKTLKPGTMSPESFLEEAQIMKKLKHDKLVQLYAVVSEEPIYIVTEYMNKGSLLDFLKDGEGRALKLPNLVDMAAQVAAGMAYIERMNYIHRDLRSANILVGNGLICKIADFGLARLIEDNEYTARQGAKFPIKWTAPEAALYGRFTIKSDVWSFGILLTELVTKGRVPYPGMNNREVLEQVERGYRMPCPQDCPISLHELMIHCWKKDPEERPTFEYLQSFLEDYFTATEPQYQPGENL"}
{"SMILES": "COc1c(OCCCN2CCOCC2)ccc2c1N=C(NC(=O)c1cnc(N)nc1)N1CCN=C21", "target": "FYN", "test": "kinase activity, inhibitor", "conditions": "1 µM", "how to read": "reference: untreated control", "quantity": "remaining activity", "result": "97%"}
{"SMILES": "CNC(=O)C1CCN(c2cc(C)c(F)cc2NC(=O)c2ccc(-c3cc(O)ccc3C)c(C)c2)CC1", "target": "FYN", "test": "binding, competition with immobilised ligand", "conditions": "1 µM", "quantity": "remaining binding", "result": "9.6%"}
{"SMILES": "O=C=[N][Ru-4]123([n]4c5ccc(O)cc5c5c6c(c7cc(F)c[n+]1c7c54)C(=O)NC6=O)[S+]1CC[S+]2CC[S+]3CC1 (stereo not drawn)", "target": "FYN", "test": "enzyme activity", "conditions": "100 nM, human enzyme, with: 10 µM ATP", "how to read": "reference: untreated", "quantity": "remaining activity", "result": "77%"}
{"SMILES": "COc1ccc(NC(=O)Nc2ccc3c(c2)C(=O)N(C(C)CO)CC(C)C(CN(C)Cc2ccc4c(c2)OCO4)O3)cc1 (stereo not drawn)", "target": "FYN", "test": "kinase activity, KinaseProfiler", "conditions": "0.03 µM, species human", "how to read": "reference: control", "quantity": "remaining activity", "result": "107%"}
{"SMILES": "C=CC(=O)Nc1cccc(-c2cnc3[nH]cc(C(=O)NC(C)(C)C)c3n2)c1", "target": "FYN", "test": "kinase activity", "conditions": "0.1 µM", "quantity": "inhibition", "result": "25% and 27%"}
{"SMILES": "Cc1cccc(O[C@H]2CCC[C@@H](C(C)CNCc3ccncc3)C2)c1 (relative stereo)", "target": "FYN", "test": "enzyme activity, inhibitor", "conditions": "10 µM", "quantity": "inhibition", "result": "-7%"}
{"SMILES": "NC(=O)C[C@H]1CCc2sc3ncnc(O[C@H]4CC[C@H](N5CCOCC5)CC4)c3c21", "target": "FYN", "test": "enzyme activity, inhibitor", "conditions": "10 µM", "quantity": "inhibition", "result": "16%"}
{"SMILES": "CC(C)=CC1OC(C)(C)C2C=C3C(=O)C(Cl)=CC(O)C3C3C(O)C4OC4C(=O)C132 (stereo not drawn)", "target": "FYN", "test": "cell-free assay, competition with immobilised ligand", "conditions": "10 µM", "quantity": "remaining binding", "result": "100%"}
{"SMILES": "CCn1cc(C(=O)O)c(=O)c2c(N)c(F)c(NC3CCCCC3)cc21", "target": "Tyrosine-protein kinase Fyn, isoform b (FYN, Homo sapiens, UniProt P06241)", "test": "kinase activity", "conditions": "0.1 µM, with: ATP at Km", "quantity": "inhibition", "result": "1.3%"}
{"SMILES": "O=C(O)CCC(=O)c1cccc(NS(=O)(=O)c2c[nH]c3ncccc23)c1", "target": "FYN", "test": "kinase activity, radiometric", "conditions": "10 µM", "quantity": "remaining activity", "result": "84%"}
{"SMILES": "C=CC(=O)N1CCCC(n2c(=O)c3ncccc3n(Cc3ccc(Oc4ccccc4)cc3)c2=O)C1 (stereo not drawn)", "target": "FYN", "test": "cell-free assay, competition with immobilised ligand", "conditions": "1 µM", "quantity": "remaining binding", "result": "90%"}
{"SMILES": "C[C@H]1CN(C(=O)c2cn(-c3ccnc(N)n3)c3cc(C#CC4(O)CCCCC4)ccc23)CCN1", "target": "FYN", "test": "enzyme activity, inhibitor, FRET", "conditions": "1 µM", "quantity": "inhibition", "result": "-1%"}
{"SMILES": "O=C(Cc1ccc(OCc2ccccc2)cc1)NC1(C(=O)O)CCN(C(=O)c2ccc(-c3cccc(Cl)c3)cc2)CC1", "target": "FYN", "test": "enzyme activity, inhibitor", "conditions": "10 µM", "quantity": "activity vs control", "result": "141%"}
{"SMILES": "COc1cc(Nc2nccc(-c3cnn4nc(OC)ccc34)n2)cc(C(F)(F)F)c1", "target": "FYN", "test": "binding, competition with immobilised ligand", "conditions": "1 µM", "quantity": "remaining binding", "result": "99%"}
{"SMILES": "CNC(=O)C[C@H](Cc1ccc(C#N)cc1)NC(=O)c1cc(-c2ccc(CN[C@H](C)c3ccc(C)cc3)o2)ccc1Cl", "target": "FYN", "test": "enzyme activity, inhibitor", "conditions": "1 µM", "quantity": "activity vs control", "result": "112%"}
